Published values of several laboratories.
Every numbered part comes from another study and shows a few of its results, in no order.

Study 1 — technique: protein binding microarray; form: double-stranded DNA, one strand shown; matrix: in vitro; concentration: not given; reference: not given; direction: higher = stronger binding
Target: Histone acetyltransferase KAT6A, winged helix 2, GST fusion (KAT6A, Homo sapiens, UniProt Q92794, residues 85-181)
Notes: 8-mer, flanks averaged, mean of 2 arrays, mostly near background
Residues (chain): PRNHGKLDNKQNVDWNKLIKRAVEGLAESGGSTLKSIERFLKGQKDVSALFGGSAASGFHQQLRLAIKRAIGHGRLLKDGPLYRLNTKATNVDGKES
Strand	E-score
AACTTCAA	-0.101
GCTAATCA	0.161
TACTACTA	-0.217
AACATCAC	-0.155
CTGCCCAC	-0.0456
ATCCAGCG	0.121
AACTTTTG	-0.088
CATCAAAC	-0.0662
CAGGTCGC	0.208
GCTGCGAC	0.082
CGTCGCAG	0.264
CGGCTAAC	0.0588
AAATGATC	-0.071
GACAAATC	-0.16
GGCAGGTA	0.034
CAATCGCG	0.00066
AAATTGGG	-0.00187
CCTACGCG	-0.0167
GCCCCATA	-0.0331
ATGCATAC	-0.242
CACGCAGA	0.0842
ACCCCAGG	-0.038
AAGCGGTG	-0.0453

Study 2 — technique: RNA Bind-n-Seq; form: RNA; matrix: in vitro; concentration: not given; reference: input RNA pool; direction: higher = stronger binding
Target: RING finger protein unkempt homolog, zinc fingers 1-6, GST-SBP tag (UNK, Homo sapiens, UniProt Q9C0B0, residues 30-357)
UniProt Q9C0B0, sequence (30-357, looked up): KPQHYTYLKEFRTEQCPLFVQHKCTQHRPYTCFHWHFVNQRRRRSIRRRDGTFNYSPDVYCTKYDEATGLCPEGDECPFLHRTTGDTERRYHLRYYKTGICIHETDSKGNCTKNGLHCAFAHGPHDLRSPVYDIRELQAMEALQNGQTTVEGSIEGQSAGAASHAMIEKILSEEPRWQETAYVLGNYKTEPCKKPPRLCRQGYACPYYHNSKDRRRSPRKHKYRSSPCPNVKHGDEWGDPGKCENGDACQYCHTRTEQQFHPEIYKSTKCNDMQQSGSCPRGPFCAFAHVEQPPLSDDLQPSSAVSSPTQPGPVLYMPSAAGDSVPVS
Notes: RNA with constant flanks, human and mouse sites, ends assumed
Shared flanks, not repeated: GGGAGUUCUACAGUCCGACGAUC … CAACAGAGGAUUGAGCAUCA
Strand	bound/input enrichment [ratio]
GGUUGCAGGUGUGUUGAACUUGACUGUUGGGAUGGAAAAGGUGAAGAUCAGGAACCGAUAAUAACUCACGGAAAAGCAAUGUGUACAGACAUCCUUUUUAAGGAUGUAAUCCAGGCCAUC	0.196
GUACAGACUGCCUCAAAACAGGUUGAUGGUGAUUACGUCGUGUCUGAAUGGAGUGAGAUUAUAGAAUUCUGUACAGCAGAUUACUCCAAAGUUCAUCUAACACAGCUGCUGGAGAAGGCU	0.23
UUGCUAUUGUGAGAUGGAUUUUAACUGACCUAUUAAGGGUUUCUUUCGAAUGGCACUACUUUAGGGACAUUCUAGUAUUUGCUUCUAUUGUUUGGGCCUUGUGGAUAAUGUACAGAUUUA	0.395
ACUGCCAGGAGGGCAAACCAAAGAGAACCCUGUACAGUAAGAAAUAUGGUGUGGACCUCAUCAGAUACACUCAUGCAGCAAACACAGUUGUUUACAGCUCUAACAAAAUAGACGAUACUA	0.336
GUAGAAUUCUGUCAUCCUGAAGACCAGCAGCUUCUAAGAGACAGCUUCCAACAGGUAGUGAAAUUAAAAGGCCAAGUGCUGUCUGUCAUGUUCCGGUUCCGGUCUAAGAACCAAGAAUGG	1.32
CUGGUGGCUGGUAGUAUAAUUGGAGCGUUGUUGGGCGCGCCCAUGGGAAGCUUGCUGAUGGCCCUGGAGAAGUACUCCGGUGAGACGGUUCAGGAGAGAAGGCAGAAGGAAUGGAAGGCC	0.464
GAACUGGUGGAAGCUAUGUAUGGCAAACUCAGCAACCAGGAAAGGAUCACACUGUUAGACAUAGUGAUAGCCAAGCUAGUGGGUGAGGAGCAGCUGACAAAGGAUGACAUCUCUAUCUUU	0.262
UGGCUCUGCUGUCCCUUCCGUGAUGUCGUUUUUUGGGUUUUUUUUUUUUUUGGGAGAGUCCCCGUCCUGUACCUGCAUCUAGCCCUGAGGGUGGGCAAGGGUCUCCUAGUCAUCAGGCCA	0.184

Study 3 — technique: universal PBM; form: double-stranded DNA, one strand shown; matrix: in vitro; concentration: 600 nM; direction: higher = stronger binding
Target: Sal-like protein 4, full length isoform A (SALL4, Homo sapiens, UniProt Q9UJQ4, residues 1-1053)
UniProt Q9UJQ4, sequence (whole entry, looked up): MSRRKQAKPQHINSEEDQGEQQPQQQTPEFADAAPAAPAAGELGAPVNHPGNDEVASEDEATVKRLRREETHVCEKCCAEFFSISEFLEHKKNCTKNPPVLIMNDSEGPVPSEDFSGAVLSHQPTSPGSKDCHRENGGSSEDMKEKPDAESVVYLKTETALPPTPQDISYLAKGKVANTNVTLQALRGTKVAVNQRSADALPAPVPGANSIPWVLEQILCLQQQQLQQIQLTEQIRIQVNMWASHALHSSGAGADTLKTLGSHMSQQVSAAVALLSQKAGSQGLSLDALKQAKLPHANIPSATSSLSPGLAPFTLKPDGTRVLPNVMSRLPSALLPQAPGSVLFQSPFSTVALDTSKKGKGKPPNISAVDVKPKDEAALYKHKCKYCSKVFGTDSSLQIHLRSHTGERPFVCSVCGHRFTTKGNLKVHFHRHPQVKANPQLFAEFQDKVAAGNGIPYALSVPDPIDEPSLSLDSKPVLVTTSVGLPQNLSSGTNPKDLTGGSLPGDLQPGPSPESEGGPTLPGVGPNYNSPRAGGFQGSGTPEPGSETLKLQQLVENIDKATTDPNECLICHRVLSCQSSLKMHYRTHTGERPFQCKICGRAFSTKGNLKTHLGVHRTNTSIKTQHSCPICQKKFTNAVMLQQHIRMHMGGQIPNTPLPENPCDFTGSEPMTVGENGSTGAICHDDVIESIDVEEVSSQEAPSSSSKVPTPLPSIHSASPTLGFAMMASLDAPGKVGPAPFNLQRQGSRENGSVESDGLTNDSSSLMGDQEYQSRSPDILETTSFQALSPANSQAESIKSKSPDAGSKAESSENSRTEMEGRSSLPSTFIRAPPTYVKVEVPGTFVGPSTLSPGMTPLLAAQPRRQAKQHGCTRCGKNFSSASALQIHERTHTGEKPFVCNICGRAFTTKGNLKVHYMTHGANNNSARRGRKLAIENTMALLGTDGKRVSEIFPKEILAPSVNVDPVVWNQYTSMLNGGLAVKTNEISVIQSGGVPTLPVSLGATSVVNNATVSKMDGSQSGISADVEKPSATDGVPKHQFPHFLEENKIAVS
Notes: 8-mer, flanks averaged, mean of replicates
Strand	E-score
AACGGGTC	-0.276
GCATAACC	0.0256
CCCGACAA	0.0358
ATGGGCGC	-0.328
CTTAACCC	-0.171
CTATGTTC	0.101
GACTATAA	0.285
GGAGCGAA	-0.0539
AACGCGGA	-0.149
AATCGCTC	-0.00324
ATACCGTG	-0.0738
CGACCCCG	-0.4
CGGGTCAG	-0.195
GGGCCACA	-0.191
ATGTGAAC	0.131
GAAAAAAA	0.325
CATTACCG	0.0244
GAACGGTC	-0.196
ACTAGACA	0.173
CAGACGCG	-0.381

Study 4 — technique: RNA Bind-n-Seq; form: RNA; matrix: in vitro; concentration: 1 µM; notes: whole 134-nt RNA, ends assumed; added: 150 mM KCl; reference: input library; direction: higher = stronger binding
Target: Ras GTPase-activating protein-binding protein 1, RRM domain (G3BP1, Homo sapiens, UniProt Q13283)
UniProt Q13283, sequence (whole entry, looked up): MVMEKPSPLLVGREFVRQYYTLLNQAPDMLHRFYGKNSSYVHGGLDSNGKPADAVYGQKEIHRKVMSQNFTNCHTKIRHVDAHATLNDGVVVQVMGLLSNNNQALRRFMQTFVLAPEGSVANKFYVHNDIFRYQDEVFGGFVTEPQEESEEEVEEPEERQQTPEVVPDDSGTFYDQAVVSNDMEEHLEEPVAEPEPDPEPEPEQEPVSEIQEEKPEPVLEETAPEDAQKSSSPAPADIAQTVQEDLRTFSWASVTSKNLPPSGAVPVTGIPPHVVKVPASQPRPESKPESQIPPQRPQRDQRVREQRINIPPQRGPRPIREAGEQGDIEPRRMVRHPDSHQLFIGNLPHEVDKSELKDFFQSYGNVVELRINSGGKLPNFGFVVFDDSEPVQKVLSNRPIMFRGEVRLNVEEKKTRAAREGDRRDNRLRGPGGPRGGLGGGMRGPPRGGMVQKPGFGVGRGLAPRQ
Shared flanks, not repeated: GGGAGUUCUACAGUCCGACGAUC … UGGAAUUCUCGGGUGUCAAGG
Strand	log2 enrichment
UCCUGUGCUACACAUCGUAUGUACCGAAUCGGGAAAAAGGGGAAAAAGGGGAAAAAGGGGAAAGUAUUAUGUUACGCCGUUCGGAUCUGC	0.171
CAAGUCCUGUGCUACACAUCGUAUGUACCGAAUCGGAAAAAGGAAAGGUUUUUGGAAAGUAUUAUGUUACGCCGUUCGGAUCUGCACUUC	-0.266
CACAGACAACACGCACCCACACAGACACAGAGGGAAGGGCUUGGGAUGGGGACAGGGUGCACAGCAGGGCGGGGUAGGACCCCAGCCCCU	-0.232
CACAGACAACACGCACCCACACAGACACAGAGGGAAGGGGUUGGGAUGGGGACAGGGAAAACAGCAGGGCGGGGUAGGACCCCAGCCCCU	-0.0835
AGUCCUGUGCUACACAUCGUAUGUACCGAAUCGGGGCCCCGGGGCCCCGGCCCCGGGAAAGUAUUAUGUUACGCCGUUCGGAUCUGCACU	-0.929
UCAAGUCCUGUGCUACACAUCGUAUGUACCGAAUCGGGUGGGUGGGAAAAAGGGAAAGUAUUAUGUUACGCCGUUCGGAUCUGCACUUCC	0.529
UAACUUUAGAGGAGGAUCUGAUGGAUAUGGCAGUGGACGUGCAUUUGGGGAUGGCUAUAAUGGGUAUGGAGGAGGACCUGGAGGUGGCAA	-0.584
UAACUUUAGAGGAGGAUCUGAUGGAUAUGGCAGUGGACGUGGAUUUGGGGAUGGCUAUAAUGGGUAUGGAGGAGGACCUGGAGAUGGCAA	-0.446
UAACUUUAGAGGAGGAUCUGAUGGAUAUGGCAGUGGACGUGAAUUUGGGGAUGGCUAUAAUGGGUAUGGAGGAGGACCUGGAGGUGGCAA	-0.406

Some of these lines once more (study 3):
Strand	E-score
CTATGTTC	0.101
GACTATAA	0.285
GGAGCGAA	-0.0539
AACGCGGA	-0.149
AATCGCTC	-0.00324
ATACCGTG	-0.0738
CGACCCCG	-0.4
CGGGTCAG	-0.195
